{"data": "Results collected from several papers", "note": "Compare with care: the assays were run in different laboratories. “And” joins repeats or separate records; there may be more than shown."}
{"SMILES": "Cc1ccc(CCC(=O)Nc2nnc(S(N)(=O)=O)s2)cc1", "target or system": "Enterococcus faecium", "test system": "NR-31909", "measurement": "MIC", "result": "0.046 µM"}
{"SMILES": "COc1cc(C(=O)NS(=O)(=O)c2ccccc2C)ccc1Cc1cn(C)c2ccc(NC(=O)OC3CCCC3)cc12", "target or system": "native VRAC", "test": "ion current, inhibitor, whole-cell patch clamp", "test system": "wild-type HCT cells", "conditions": "100 µM, pH 7.4, extracellular pH", "measurement": "inhibition", "result": "91.9% and 98.6% and 93.4% and 91.7% and 87.3%"}
{"SMILES": "CCn1cc(-c2cc(Cn3ccnc3)cc3c2CCN([C@H](c2cc(OC)ccn2)C2CC2)C3=O)c(C(F)(F)F)n1", "target or system": "MINO", "test": "cell growth, inhibitor", "conditions": "120 h", "measurement": "EC50", "result": "2.7 µM"}
{"SMILES": "C=C[C@]1(C)C[C@@H](OC(=O)CSCCN(CC)CC)[C@]2(C)[C@H](C)CC[C@]3(CCC(=O)[C@H]32)[C@@H](C)[C@@H]1O", "target or system": "Mycoplasma gallisepticum", "test system": "infected chickens, lung", "conditions": "oral, 40 mg/kg", "measurement": "mycoplasma count", "result": "3.32 log10 CFU/mL"}
{"SMILES": "c1ccc(-c2n[nH]cc2-c2ccnc3ccccc23)nc1", "target or system": "orf19.6492 kinase Candida albicans", "test": "MIB/MS competition binding", "test system": "Candida albicans cell lysate", "conditions": "1 µM", "how to read": "reference: DMSO, lower = stronger binding", "measurement": "log2 fold change", "result": 1.53}
{"SMILES": "O=C(N1CCc2ccccc21)n1ccnn1", "target or system": "Arabidopsis thaliana", "test system": "wild type, seeds", "conditions": "100 µM, after high-temperature exposure, together with: 1 µM karrikin KAR2", "measurement": "germination rate", "result": "0%"}
{"SMILES": "c1coc(-c2n[nH]cc2-c2ccnc3ccccc23)c1", "target or system": "CKA2 (Candida albicans)", "test": "kinase binding, MIB/MS competition", "test system": "Candida albicans lysate", "conditions": "1 µM", "how to read": "reference: DMSO", "measurement": "log2 fold change", "result": -0.28}
{"SMILES": "COc1cnc2cccc(N3CCc4c(cc(Cn5ccnc5C)cc4-c4cn(C)nc4C(F)(F)F)C3=O)c2c1", "target or system": "SW837", "test": "cell growth, inhibitor", "conditions": "120 h", "measurement": "EC50", "result": "0.0756 µM"}
{"SMILES": "CN[C@H](CC(C)C)C(=O)N[C@H]1C(=O)N[C@@H](CC(N)=O)C(=O)N[C@H]2C(=O)N[C@H]3C(=O)N[C@H](C(=O)N[C@H](C(=O)O)c4cc(O)cc(O)c4-c4cc3ccc4O)[C@H](O)c3ccc(c(Cl)c3)Oc3cc2cc(c3O[C@@H]2O[C@H](CO)[C@@H](O)[C@H](O)[C@H]2O[C@H]2C[C@](C)(N)[C@H](O)[C@H](C)O2)Oc2ccc(cc2Cl)[C@H]1O", "target or system": "Enterococcus faecium", "test": "agar dilution", "test system": "compound-intermediate", "conditions": "25 isolates", "measurement": "MIC50", "result": "4 µg/mL"}
{"SMILES": "N#Cc1ccc2c(-c3ccncc3)c(-c3ccc(F)cc3)nn2c1", "target or system": "orf19.4518 kinase Candida albicans", "test": "MIB/MS competition binding", "test system": "Candida albicans cell lysate", "conditions": "1 µM", "how to read": "reference: DMSO, lower = stronger binding", "measurement": "log2 fold change", "result": -0.168}
{"SMILES": "CC(C)n1ncc2c(C(=O)NCC3(C)CNC3)cc(C3CC3)nc21", "target or system": "coxsackievirus B3", "test": "CPE", "test system": "Vero", "conditions": "15 µM", "measurement": "cell protection", "result": "97% and 103%"}
{"SMILES": "NC(=O)c1cnc2[nH]ccc2c1N[C@@H]1[C@@H]2CC3C[C@H]1C[C@@](O)(C3)C2", "test": "total naive T cells, flow cytometry", "test system": "Caucasian humans, peripheral blood", "conditions": "60 mg single dose", "how to read": "reference: baseline", "measurement": "percent change", "result": "-1.07%"}
{"SMILES": "Cn1cc(-c2ccc(-c3cncc(Cl)c3N3CCC4(CCNC4=O)CC3)cc2)cn1", "target or system": "COLO 205", "test": "gene expression, microarray, refers to: CABLES1 mRNA", "conditions": "concentration not given, 6 h", "how to read": "reference: untreated cells", "measurement": "log2 fold change", "result": 1.26}
{"SMILES": "O=C(/C=C/C=C/C=C/C1CCCCC1)NC1=C[C@@](O)(/C=C/C=C/C=C/C(=O)NC2=C(O)CCC2=O)[C@@H]2O[C@@H]2C1=O", "target or system": "HuP-T3", "test": "cell growth, CellTiter-Glo", "conditions": "78 h", "measurement": "GI50", "result": "19.5 µM"}
{"SMILES": "CC(=O)NC[C@H]1CN(c2ccc(N3CCOCC3)c(F)c2)C(=O)O1", "target or system": "Staphylococcus", "test system": "MRSE-8, mouse systemic infection", "conditions": "intravenous", "how to read": "survival", "measurement": "ED50", "result": "7.99 mg/kg"}
{"SMILES": "Cc1n[nH]c2ccc(-c3cc(OC[C@@H](N)Cc4ccccc4)cnc3-c3ccoc3)cc12", "target or system": "orf19.4144 kinase Candida albicans", "test": "MIB/MS competition binding", "test system": "Candida albicans cell lysate", "conditions": "100 nM", "how to read": "reference: DMSO, lower = stronger binding", "measurement": "log2 fold change", "result": -0.0982}
{"SMILES": "Oc1ccccc1-c1n[nH]cc1-c1ccnc2ccccc12", "target or system": "CKA2 (Candida albicans)", "test": "kinase binding, MIB/MS competition", "test system": "Candida albicans lysate", "conditions": "10 µM", "how to read": "reference: DMSO", "measurement": "log2 fold change", "result": 0.39}
{"SMILES": "CC(C)NCC(O)c1ccc(O)c(O)c1 (stereo not shown)", "test system": "ventricular cardiomyocytes, C57BL/6 mouse", "conditions": "dose not given, 0.644 s", "measurement": "sarcomere length", "result": "1.72 µm"}
{"SMILES": "N#Cc1ccn2c(-c3ccncc3)c(-c3ccc(F)cc3)nc2c1", "target or system": "orf19.4518 kinase Candida albicans", "test": "MIB/MS competition binding", "test system": "Candida albicans cell lysate", "conditions": "1 µM", "how to read": "reference: DMSO, lower = stronger binding", "measurement": "log2 fold change", "result": 0.11}
